{"data": "Experimental data collected from several papers", "note": "Compare with care: the assays were run in different laboratories. ± gives the spread as reported."}
{"Substance": "C[N+](C)(C)[C@@H](Cc1c[nH]c(=S)[nH]1)C(=O)[O-]", "test system": "rat treated with 1,25-dihydroxyvitamin D3, liver", "setting": "intravenous", "how to read": "baseline: untreated control rats", "measurement": "decrease in tissue partition coefficient", "value": "41.8%"}
{"Substance": "COc1ccc(Nc2ccc3c(c2)C(c2ccccc2F)=NC(C)C(=O)N3)cc1 (stereo not shown)", "assay": "shake flask", "test system": "PBS", "setting": "24 h, pH 7.4", "measurement": "solubility", "value": "< 1 µM"}
{"Substance": "CCCCCOc1ccc(-c2ccc(-c3ccc(C(=O)N[C@H]4C[C@@H](O)[C@@H](O)NC(=O)[C@@H]5[C@@H](O)[C@@H](C)CN5C(=O)[C@H]([C@@H](C)O)NC(=O)[C@H]([C@H](O)[C@@H](O)c5ccc(O)cc5)NC(=O)[C@@H]5C[C@@H](O)CN5C(=O)[C@H]([C@@H](C)O)NC4=O)cc3)cc2)cc1", "test system": "adult patients", "setting": "iv, dose not given, 3, during treatment", "measurement": "patients with gastrointestinal adverse events", "value": "30%"}
{"Substance": "CN[C@@](C)(C[18F])C(=O)O", "test system": "SCID mouse DU-145 xenograft, lung", "setting": "15 min, post injection", "measurement": "tissue uptake", "value": "2.7 ± 0.7 %ID/g"}
{"Substance": "Clc1cc2c(cc1Cl)Oc1cc(Cl)c(Cl)cc1O2", "test system": "zebrafish (Danio rerio) embryo, whole embryo, dry weight", "setting": "waterborne, 10 ppb, 24 hpf", "measurement": "internal concentration", "value": "0.96 ppt"}
{"Substance": "NC(=O)c1nc(F)c[nH]c1=O", "assay": "UV-Vis spectrophotometry", "test system": "supercritical CO2", "setting": "308 to 338 K, 12 to 30 MPa, overall range", "measurement": "solubility", "value": "4 to 2620 µg/mL"}
{"Substance": "CSCC[C@@H]1NC(=O)[C@H](CC(=O)O)NC(=O)CNC(=O)[C@H](CCCNC(=N)N)NC(=O)[C@H](C)NC(=O)[C@H](CCC(=O)O)NC(=O)[C@H](CCCNC(=N)N)NC(=O)[C@@H]2CSSC[C@@H]3NC(=O)[C@H](CO)NC(=O)[C@H]([C@@H](C)O)NC(=O)[C@@H]4CCCN4C(=O)[C@H](C)NC(=O)[C@H](Cc4c[nH]c5ccccc45)NC(=O)[C@H](CC(=O)O)NC(=O)CNC(=O)[C@H](CCCNC(=N)N)NC(=O)CNC(=O)[C@H](CCC(N)=O)NC(=O)[C@@H]4CCCN4C(=O)[C@@H](NC(=O)CNC(=O)C(C)F)CSSC[C@H](NC(=O)CNC(=O)[C@H](C)NC(=O)[C@H](CC(C)C)NC(=O)[C@H](CSSC[C@@H](C(=O)NCC(N)=O)NC(=O)[C@H]([C@@H](C)O)NC(=O)[C@H](CCCNC(=N)N)NC(=O)[C@@H]4CCCN4C1=O)NC(=O)[C@H](CC(=O)O)NC(=O)[C@H](CO)NC(=O)[C@H](CC(=O)O)NC(=O)[C@H](CCC(N)=O)NC(=O)[C@H](CO)NC3=O)C(=O)N[C@@H](C(C)C)C(=O)N2 (stereo partly shown) [fluorine-18 labelled]", "test system": "nude mice U-87 MG xenograft, pancreas", "setting": "intravenous, 1 h", "measurement": "tissue uptake", "value": "0.22 ± 0.02 %ID/g"}
{"Substance": "[123I]c1cncc(OC[C@@H]2CCN2)c1", "assay": "SPECT", "test system": "human, hippocampus", "setting": "intravenous bolus plus infusion, 7.8 mCi", "how to read": "baseline: tissue over plasma", "measurement": "tissue/plasma ratio", "value": 22.7}
{"Substance": "CCCCCCCCCCCC[N+](C)(C)CCCCCCCCCCCC", "assay": "in vitro-in vivo extrapolation", "test system": "human", "measurement": "hepatic clearance", "value": "0.488 mL/h/g liver"}
{"Substance": "O=C(c1ccc(F)c(F)c1Nc1ccc(I)cc1F)N1CC(O)([C@@H]2CCCCN2)C1", "assay": "measured: retinal detachment", "test system": "human patients", "setting": "oral, 1 mg/kg, dose expansion, grade G2", "measurement": "treatment-related adverse events", "value": "0%"}
{"Substance": "Cc1ccc(Nc2nccc(N(C)c3ccc4c(C)n(C)nc4c3)n2)cc1S(N)(=O)=O", "test system": "patients without gastric acid suppression, plasma", "setting": "oral, 800 mg once daily, 24 h, fasted, first steady state, geometric mean", "measurement": "Cmin", "value": "28200 ng/mL"}
{"Substance": "CC(=O)N[C@H](CCCCNC(=O)C(C)F)C(=O)N[C@@H](CS)C(=O)N[C@@H](CS)C(=O)N[C@@H](CCC(=O)O)C(=O)N[C@@H](Cc1c[nH]cn1)C(=O)N[C@H](Cc1ccccc1)C(=O)N[C@@H](CCCNC(=N)N)C(=O)N[C@@H](Cc1c[nH]c2ccccc12)C(=O)N[C@@H](CS)C(=O)N[C@@H](CCCNC(=N)N)C(=O)N1CCC[C@H]1C(=O)N[C@H](C(N)=O)C(C)C (stereo partly shown) [fluorine-18 labelled]", "test system": "C57BL/6 mice, male, B16-F10 tumour, bone", "setting": "intravenous, 1 h", "measurement": "tissue uptake", "value": "0.69 ± 0.18 %ID/g"}
{"Substance": "C[N+](C)(C)CCOP(=O)([O-])OCCCCCCCCCCCCCCCCCCc1ccc(C2=C3C=CC=[N+]3[B-](F)(F)n3cccc32)cc1", "test system": "octanol/water", "setting": "48 h, pH 7.4, room temperature", "measurement": "logD", "value": 4.59}
{"Substance": "CC(=O)N[C@H](C(=O)N[C@@H](CO)C(=O)N[C@@H](CCCNC(=N)N)C(=O)N[C@@H](CCCNC(=N)N)C(=O)N[C@@H](CCCNC(=N)N)C(N)=O)C(C)C", "test system": "healthy adults", "setting": "intravenous infusion, 1 mg/kg every 6 h, over 30 min, minimum among subjects", "how to read": "baseline: dose 13 over dose 1", "measurement": "AUC(tau) accumulation ratio", "value": 0.9}
{"Substance": "CC[C@H](C)[C@H](NC(=O)[C@@H](N)CCCNC(=N)N)C(=O)N[C@H](C(=O)N1CCC[C@H]1C(=O)N[C@@H](C)C(N)=O)C(C)C", "test system": "healthy volunteers, both sexes, plasma", "setting": "intravenous infusion, 5.0 mg/kg, single ascending dose", "measurement": "Tmax", "value": "4.9 ± 1 min"}
{"Substance": "intermedine", "assay": "LC-MS/MS depletion", "test system": "human whole blood", "setting": "1000 ng/mL, 60 min, 37 °C", "measurement": "blood-to-plasma ratio", "value": 1.12}
{"Substance": "CC(C)C[C@H](NC(=O)[C@H](CCC(=O)O)NC(=O)[C@H](CCC(=O)O)NC(=O)[C@H](CC(=O)O)NC(=O)[C@H](CCC(=O)O)NC(=O)[C@H](CCC(=O)O)NC(=O)[C@H](CCC(=O)O)NC(=O)[C@@H](N)CC(=O)O)C(=O)O", "test system": "rat, plasma", "setting": "intravenous, 11.0 mg/kg single dose, 90 min", "measurement": "plasma concentration", "value": "123 ng/mL"}
{"Substance": "Cc1cnc(C(=O)N[C@H]2CCCCC/C=C\\[C@@H]3C[C@@]3(C(=O)NS(=O)(=O)C3CC3)NC(=O)[C@@H]3C[C@@H](Oc4nc5ccccc5c5ccccc45)CN3C2=O)cn1", "test system": "healthy human volunteers, plasma", "setting": "oral, dose not given, alone, omeprazole interaction study", "measurement": "AUC(0-24)", "value": "11100 ng·h/mL"}
{"Substance": "eremomycin pyrrolidide", "test system": "CBA mouse", "setting": "intravenous, single bolus in 5% glucose", "measurement": "LD50", "value": "248 mg/kg"}
{"Substance": "CN[C@@H]1C[C@H]2O[C@@](C)([C@@H]1OC)n1c3ccccc3c3c4c(c5c6ccccc6n2c5c31)C(=O)N[C@@H]4O", "test system": "human patients, plasma", "setting": "intravenous infusion, 45 mg/m^2/day, 72 h infusion, median, cycle 1", "measurement": "terminal half-life", "value": "361 h"}
{"Substance": "CNC(=O)c1ccc(-c2cnn3ccc(C(=O)N(C)c4ccc(Cl)c(C(=O)OC)c4)cc23)cc1", "test system": "neonatal calf, uninfected healthy, plasma", "setting": "oral, 10 mg/kg, 0 to 12 h", "measurement": "AUC(0-t)", "value": "0.33 µM·h"}
{"Substance": "O[C@H]1CCCN[C@@H]1CCCn1cnc2c(Cl)c(Cl)ccc21", "test system": "healthy volunteers, urine", "setting": "oral, 500 mg tablet single, geometric mean", "measurement": "renal clearance (0-72 h)", "value": "1510 mL/min"}
{"note": "For quick reference, copied from above:"}
{"Substance": "Clc1cc2c(cc1Cl)Oc1cc(Cl)c(Cl)cc1O2", "test system": "zebrafish (Danio rerio) embryo, whole embryo, dry weight", "setting": "waterborne, 10 ppb, 24 hpf", "measurement": "internal concentration", "value": "0.96 ppt"}
{"Substance": "intermedine", "assay": "LC-MS/MS depletion", "test system": "human whole blood", "setting": "1000 ng/mL, 60 min, 37 °C", "measurement": "blood-to-plasma ratio", "value": 1.12}
